Measurements pooled from the literature.
Numbered parts are unrelated; each lists some results of a single study.

Sample 1
Target: Histone acetyltransferase KAT6A, winged helix 1, GST fusion (KAT6A, Homo sapiens, UniProt Q92794, residues 1-85)
Technique: protein binding microarray
Form: double-stranded DNA, one strand shown
Sample: in vitro
Tested at: not given
Notes: 8-mer, flanks averaged, mean of 2 arrays, mostly near background
Baseline: not given
Reading: higher = stronger binding
Measurement: E-score
Construct (chain): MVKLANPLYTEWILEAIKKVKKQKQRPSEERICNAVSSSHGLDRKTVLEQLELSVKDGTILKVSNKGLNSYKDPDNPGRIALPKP
ACGGCGCC: 0.43
CCCAGCGC: 0.23
GCCATCCC: -0.0215

Sample 2
Target: Interferon regulatory factor 5, full length, phosphomimetic (IRF5, Homo sapiens, UniProt Q13568-2, residues 1-514, K96S/S451D/S453D/S456D/S462D)
Technique: protein-binding microarray
Form: double-stranded DNA, one strand shown
Sample: in vitro
Tested at: 250 nM
Notes: 60-bp whole probe
With: salmon DNA 0.4 mg/ml
Baseline: random background probes
Reading: higher = stronger binding
Measurement: log fluorescence
GCCTAGCACGACAATATCAGACTGGAGACGTGCTAGGTCTTGATTCGCTTGACGCTGCTG: 0.214 z-score
GCCTAGCACTTAGATATCATTTTCGATTAGTGCTAGGTCTTGATTCGCTTGACGCTGCTG: 8.21 z-score
GCCTAGCACAACGGTTTCCTACTGCTGACGTGCTAGGTCTTGATTCGCTTGACGCTGCTG: 0.686 z-score
GCCTAGCACTCAGTTTCTATTTTCTGACTGTGCTAGGTCTTGATTCGCTTGACGCTGCTG: 5.85 z-score

Single results of other studies
PABPC1L2 full length, GST fusion: PABPC1L2, full length, GST fusion (mouse, UniProt A0ABA7IW68)
UCUAACU
7-mer Z-score (PABPC1L2 full length, GST fusion; RNAcompete; RNA, in vitro; 20 nM, 7-mer, probes averaged, single round; baseline: mean of 7-mers, higher = stronger binding): -0.425

PhoQ, residues 284 288 289 292 302 303 TASMAF
fold induction (PhoP, residues 12 14 15 18 19 QYCSL (Escherichia coli, UniProt P23836); Sort-seq, refers to: YFP reporter; E. coli; PhoQ-PhoP variant library, with: 10 µM Mg2+; baseline: high Mg2+ state, higher = stronger signaling): 10.4

AAAAGGU
7-mer Z-score (PABPC1L2 full length, GST fusion; RNAcompete; RNA, in vitro; 20 nM, 7-mer, probes averaged, single round; baseline: mean of 7-mers, higher = stronger binding): 3.2

CUGACUG
7-mer Z-score (PABPC1L2 full length, GST fusion; RNAcompete; RNA, in vitro; 20 nM, 7-mer, probes averaged, single round; baseline: mean of 7-mers, higher = stronger binding): -0.264

Some of these lines once more (sample 1):
GCCATCCC: -0.0215
